{"data": "Experimental data of several laboratories", "note": "Lines come from different studies, so protocols differ. Values joined by “and” are separate records of one study, mostly repeats; a detail may differ. ± marks the error that the study gave."}
{"SMILES": "Oc1ccc(CCc2cc(O)cc(O)c2)cc1", "system": "human, both sexes, cerebrospinal fluid", "endpoint": "samples above LOQ", "value": "0%"}
{"SMILES": "O=C(Nc1ccccc1)C1CCN(C(=O)Oc2cccnc2)CC1", "test": "psychotropic effects VAS", "system": "healthy women", "conditions": "60 mg", "how to read": "relative to: pre-dose baseline, direction not given", "endpoint": "change in Suspicious score", "value": 0.1}
{"SMILES": "N#C[C@@]1(n2ccc(N)nc2=O)O[C@H](CO)[C@@H](O)[C@H]1O", "system": "mouse CD-1, lung", "conditions": "intravenous, 15 mg/kg, 7 h", "endpoint": "lung concentration", "value": "321 ng/g"}
{"SMILES": "CCc1ccc(CC/C=C/c2ccc3c(c2)C(=O)CC3)cc1", "system": "Sprague-Dawley rat, female", "conditions": "oral, 450 mg/kg/day, 14 days", "endpoint": "GGT serum activity", "value": "1.67 U/L"}
{"SMILES": "C[C@]1(CO)Cc2ncn(-c3ccc(C#N)c(Cl)c3)c2C(=O)O1", "system": "human, plasma", "conditions": "40 mg, first dose fasted", "endpoint": "Cmax", "value": "1.42 µM"}
{"SMILES": "CC(C)(C)c1cc(-n2nc3ccccc3n2)c(O)c(C(C)(C)C)c1", "test": "exposure assessment", "system": "human, age 21-60 years", "conditions": "foundation", "endpoint": "mean daily dermal uptake", "value": "1.14 ng/kg body weight/day"}
{"SMILES": "CO[C@H]1C[C@@H]2CC[C@@H](C)[C@@](O)(O2)C(=O)C(=O)N2CCCC[C@H]2C(=O)O[C@H]([C@H](C)C[C@@H]2CC[C@@H](OC(=O)NCCOCCOCCOCCOCCOCCOCCOCCOCCC(=O)N3CCc4cc(Cn5nc(-c6ccc7oc(N)nc7c6)c6c(N)ncnc65)ccc4C3)[C@H](OC)C2)C[C@@H](O)[C@H](C)/C=C(\\C)[C@@H](O)[C@@H](OC)C(=O)[C@H](C)C[C@H](C)/C=C/C=C/C=C/1C", "test": "phase 1 dose escalation", "system": "advanced solid tumour patients", "conditions": "intravenous, 12 mg weekly, grade ≥3", "endpoint": "AEs causing dose modification", "value": "25%"}
{"SMILES": "CN1CC[C@@H](c2c(O)cc(O)c3c(=O)cc(-c4ccc(C(F)(F)F)cc4Cl)oc23)[C@@H]1CO", "test": "measured: Sepsis", "system": "relapsed B-cell malignancies or AML", "conditions": "oral, 50 mg, grade 3-4, continuous dosing", "endpoint": "patients with adverse event", "value": "0%"}
{"SMILES": "CC(C)CC(=O)OC[C@H]1O[C@@](C#N)(c2ccc3c(N)ncnn23)[C@H](O)[C@@H]1O", "system": "human plasma", "conditions": "0.9 to 90 µM", "endpoint": "fraction bound", "value": 0.808}
{"SMILES": "COc1cc2c(Oc3ccc4[nH]c(C)cc4c3F)ccnc2cc1OCC1(N)CC1", "test": "measured: grade 3 weight loss", "system": "paediatric high-risk refractory sarcoma", "conditions": "8 mg", "endpoint": "incidence of adverse event", "value": "0%"}
{"SMILES": "O=C(O)CCCOc1ccc(F)cc1-c1cc(-c2ccccc2C(F)(F)F)n(-c2ccccc2)n1", "system": "female Crl:CD(SD) rats, heart", "conditions": "intravenous, 25 µg/kg, 1 d", "endpoint": "relative organ weight", "value": "0.37 ± 0.03 g%"}
{"SMILES": "O=c1ccc2cc3ccoc3cc2o1", "test": "three freeze-thaw cycles", "system": "rat plasma", "conditions": "1000 ng/mL, -70 °C freeze", "endpoint": "accuracy", "value": "94.2%"}
{"SMILES": "O=c1cc(-c2ccc(O)c(O)c2)oc2cc(O)cc(O)c12", "system": "Sprague-Dawley rat, male, obese, urine", "conditions": "oral, 100 mg/kg of neohesperidin, 48 h, after β-glucuronidase/sulfatase, total", "endpoint": "amount excreted in urine", "value": "148 ± 12.7 ng"}
{"SMILES": "C#CC[C@H](NC(=O)[C@H](Cc1ccccc1)NC(=O)CCNC(=S)Nc1ccc2c(c1)C(=O)OC21c2ccc(O)cc2Oc2cc(O)ccc21)C(=O)N[C@@H](C)C(=O)N[C@@H](CC(C)C)C(=O)N[C@@H](CC(=O)O)C(=O)N[C@@H](Cc1c[nH]c2ccccc12)C(=O)N[C@@H](CO)C(=O)N[C@@H](Cc1c[nH]c2ccccc12)C(=O)N[C@@H](CC(C)C)C(=O)N[C@@H](CCC(N)=O)C(=O)N[C@H](C(=O)N[C@@H](CCC(=O)O)C(N)=O)[C@@H](C)O", "test": "dynamic light scattering", "system": "PBS/DMSO", "conditions": "125 nM", "endpoint": "hydrodynamic diameter", "value": "494 ± 144 nm"}
{"SMILES": "NC(=O)[C@H]1CCN(c2ncnc(N)c2F)C[C@@H]1N1CCC[C@@H](Nc2cc(Cl)cc(C(F)(F)F)c2)C1=O", "system": "B-cell malignancy patients", "conditions": "oral, 410 mg twice daily, dose", "endpoint": "grade ≥3 anaemia", "value": "0%"}
{"SMILES": "Nc1ncnc2c1ncn2[C@@H]1O[C@@H]2COP(=O)([S-])O[C@@H]3[C@H](O)[C@@H](COP([O-])(=S)O[C@H]2[C@H]1O)O[C@H]3n1cnc2c(N)ncnc21.[Na+].[Na+] (stereo partly drawn)", "system": "non-tumor-bearing mice, blood", "conditions": "intravenous, 1 mg/kg, toxicity study", "endpoint": "eosinophil percentage", "value": "5.3 ± 3.05%"}
{"SMILES": "CC(C)Nc1ccnc(Nc2cccc(-c3cccnc3)c2)n1", "test": "measured: total protein", "system": "mouse, blood", "conditions": "intraperitoneal, 10 mg/kg", "endpoint": "blood chemistry", "value": "5.4 g/dL"}
{"SMILES": "COc1ccc(-c2c(-c3ccc(C#N)c(F)c3)nc(N3CCC(N)CC3)n(C)c2=O)cc1F", "test": "measured: decreased appetite", "system": "human patients", "conditions": "oral, dose not given, dose escalation", "endpoint": "grade 3-4 TRAE incidence", "value": "0%"}
{"SMILES": "CC(C)c1nc(CN(C)C(=O)N[C@@H](CCN2CCOCC2)C(=O)N[C@H](CC[C@H](Cc2ccccc2)NC(=O)OCc2cncs2)Cc2ccccc2)cs1", "system": "human", "conditions": "oral, 150 mg, drug interaction trial", "endpoint": "deaths", "value": "0%"}
{"SMILES": "N[C@@H]1c2ccccc2OC12CCN(c1cnc3c(N4CCCc5ncccc54)n[nH]c3n1)CC2", "system": "advanced solid tumour patients", "conditions": "oral, 50 mg once daily", "endpoint": "serious TEAE grade ≥3", "value": "33.3%"}
{"SMILES": "CC[C@H](C)[C@H](NC(=O)[C@H](Cc1ccccc1)NC(=O)[C@H](CCC(=O)O)NC(=O)[C@H](CCCNC(=N)N)NC(=O)[C@H](C)NC(=O)[C@H](C)NC(=O)[C@H](CCC(N)=O)NC(=O)[C@H](CCC(=O)O)NC(=O)[C@H](CCC(=O)O)NC(=O)[C@H](CC(C)C)NC(=O)[C@H](Cc1ccc(O)cc1)NC(=O)[C@H](CO)NC(=O)[C@H](CO)NC(=O)[C@@H](NC(=O)[C@H](CC(=O)O)NC(=O)[C@H](CO)NC(=O)[C@@H](NC(=O)[C@H](Cc1ccccc1)NC(=O)[C@@H](NC(=O)CNC(=O)[C@H](CCC(=O)O)NC(=O)[C@H](C)NC(=O)CCc1cnc[nH]1)[C@@H](C)O)[C@@H](C)O)C(C)C)C(=O)N[C@@H](C)C(=O)N[C@@H](Cc1c[nH]c2ccccc12)C(=O)N[C@@H](CC(C)C)C(=O)N[C@H](C(=O)N[C@@H](CCCNC(=N)N)C(=O)NCC(=O)N[C@@H](CCCNC(=N)N)C(=O)N[C@@H](CCCCNC(=O)COCCOCCNC(=O)COCCOCCNC(=O)CC[C@H](NC(=O)CCCCCCCCCCCCCCCCC(=O)O)C(=O)O)C(=O)NCC(=O)NCC(=O)N[C@@H](CO)C(=O)N[C@@H](CCCCNC(=O)[C@H](CCCCNc1c(NCCCCCN(O)C(=O)CCC(=O)NCCCCCN(O)C(=O)CCC(=O)NCCCCCN(O)C(C)=O)c(=O)c1=O)Nc1c(NCCCCCN(O)C(=O)CCC(=O)NCCCCCN(O)C(=O)CCC(=O)NCCCCCN(O)C(C)=O)c(=O)c1=O)C(=O)O)C(C)C [zirconium-89 labelled]", "test": "ex vivo gamma counting", "system": "Sprague-Dawley rat, male, liver", "conditions": "intravenous, 1 nmol, 24 h", "endpoint": "tissue uptake", "value": "1.76 %ID/g and 1.86 %ID/g and 1.95 %ID/g and 1.52 %ID/g and 1.66 %ID/g"}
{"SMILES": "COc1ncccc1-c1cnn2ccc(N3CCN(C(=O)OC(C)C)CC3)nc12", "system": "mouse nerve ligation model, brain", "conditions": "oral, 30 mg/kg, 120 min after last dose, repeat dosing day 4", "endpoint": "drug concentration", "value": "19 µM"}
{"SMILES": "O=C(c1ccc(F)c(F)c1Nc1ccc(I)cc1F)N1CC(O)([C@@H]2CCCCN2)C1", "system": "patients aged 2 to 6 years", "conditions": "oral, dose not given", "endpoint": "treatment-related adverse events", "value": "90%"}
{"SMILES": "CCCCCOc1ccc(-c2ccc(-c3ccc(C(=O)N[C@H]4C[C@@H](O)[C@@H](OCC[N+](C)(C)C)NC(=O)[C@@H]5[C@@H](O)[C@@H](C)CN5C(=O)[C@H]([C@@H](C)O)NC(=O)[C@H]([C@H](O)[C@@H](O)c5ccc(O)cc5)NC(=O)[C@@H]5C[C@@H](O)CN5C(=O)[C@H]([C@@H](C)O)NC4=O)cc3)cc2)cc1", "system": "adult ICU patients, mITT, serum", "conditions": "dose not given, day 14", "endpoint": "potassium", "value": "4.1 mmol/L"}
{"SMILES": "CC(=O)c1c(C)c2cnc(Nc3ccc(C4CCN(CCS(C)(=O)=O)CC4)cn3)nc2n(C2CCCC2)c1=O", "system": "human, plasma", "conditions": "oral, 50 mg twice daily, day 21, multiple dose, together with: letrozole", "endpoint": "Tmax", "value": "1.94 h"}
{"SMILES": "[2H]C([2H])([18F])[C@]([2H])(N)C(=O)O", "system": "U-87 MG xenograft mouse, kidney", "conditions": "110 min", "endpoint": "tissue uptake", "value": "7.44 ± 3.16 %ID/g"}
{"SMILES": "CC(C)C[C@H](NC(=O)[C@H](CCCCN)NC(=O)OCC1c2ccccc2-c2ccccc21)C(=O)N[C@H](C(=O)N[C@@H](Cc1ccccc1)C(=O)N[C@@H](Cc1ccccc1)C(=O)N[C@@H](CCCCN)C(=O)NCC(=O)N[C@@H](Cc1ccccc1)C(=O)N[C@@H](C)C(=O)N[C@@H](Cc1c[nH]c2ccccc12)C(=O)N[C@@H](CC(N)=O)C(=O)N[C@H](C(=O)N[C@H]1CSSC[C@@H](C(=O)N[C@@H](Cc2c[nH]cn2)C(=O)N[C@@H](CCCNC(=N)N)C(=O)N[C@@H](CCCNC(=N)N)C(=O)N[C@@H](C)C(=O)N[C@@H](CC(N)=O)C(N)=O)NC(=O)[C@H](C(C)C)NC(=O)[C@H](CCCNC(=N)N)NC(=O)[C@H](C(C)C)NC(=O)CNC(=O)[C@H](CC(N)=O)NC(=O)[C@H](CCCNC(=N)N)NC(=O)[C@H](Cc2ccc(O)cc2)NC(=O)[C@H](C(C)C)NC1=O)C(C)C)C(C)C", "test": "circular dichroism, measured: Random-coil", "system": "PBS", "conditions": "80 µM, pH 7.4", "endpoint": "secondary structure content", "value": "31.4%"}
{"note": "For quick reference, copied from above:"}
{"SMILES": "C#CC[C@H](NC(=O)[C@H](Cc1ccccc1)NC(=O)CCNC(=S)Nc1ccc2c(c1)C(=O)OC21c2ccc(O)cc2Oc2cc(O)ccc21)C(=O)N[C@@H](C)C(=O)N[C@@H](CC(C)C)C(=O)N[C@@H](CC(=O)O)C(=O)N[C@@H](Cc1c[nH]c2ccccc12)C(=O)N[C@@H](CO)C(=O)N[C@@H](Cc1c[nH]c2ccccc12)C(=O)N[C@@H](CC(C)C)C(=O)N[C@@H](CCC(N)=O)C(=O)N[C@H](C(=O)N[C@@H](CCC(=O)O)C(N)=O)[C@@H](C)O", "test": "dynamic light scattering", "system": "PBS/DMSO", "conditions": "125 nM", "endpoint": "hydrodynamic diameter", "value": "494 ± 144 nm"}
{"SMILES": "NC(=O)[C@H]1CCN(c2ncnc(N)c2F)C[C@@H]1N1CCC[C@@H](Nc2cc(Cl)cc(C(F)(F)F)c2)C1=O", "system": "B-cell malignancy patients", "conditions": "oral, 410 mg twice daily, dose", "endpoint": "grade ≥3 anaemia", "value": "0%"}
{"SMILES": "Nc1ncnc2c1ncn2[C@@H]1O[C@@H]2COP(=O)([S-])O[C@@H]3[C@H](O)[C@@H](COP([O-])(=S)O[C@H]2[C@H]1O)O[C@H]3n1cnc2c(N)ncnc21.[Na+].[Na+] (stereo partly drawn)", "system": "non-tumor-bearing mice, blood", "conditions": "intravenous, 1 mg/kg, toxicity study", "endpoint": "eosinophil percentage", "value": "5.3 ± 3.05%"}
